Assay results of several laboratories.
A part holds a random share of what one study measured. Substitutions count along the parent as printed.

Set 1
Target: Histone acetyltransferase KAT6A, winged helix 2, GST fusion (KAT6A, Homo sapiens, UniProt Q92794, residues 85-181)
Method: protein binding microarray
Form: double-stranded DNA, one strand shown
Medium: in vitro
Concentration: not given
Setting: 8-mer, flanks averaged, mean of 2 arrays, mostly near background
Relative to: not given
Direction: higher = stronger binding
Construct (chain): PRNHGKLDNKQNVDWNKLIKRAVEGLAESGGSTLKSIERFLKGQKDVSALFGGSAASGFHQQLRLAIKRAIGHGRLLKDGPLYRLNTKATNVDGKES
| Sequence | E-score |
| --- | --- |
| GTCTAGGA | -0.13 |
| TATGTGGA | -0.0274 |
| ACTTTCGA | -0.0765 |
| GGCATATA | 0.0972 |
| ATAACAGC | 0.00749 |
| TGAATGCA | 0.105 |
| GTATTCAC | 0.0673 |
| ATGAGTGC | -0.128 |
| ACCTATCT | -0.225 |
| ACTGATTA | -0.0401 |
| CATTGGCC | -0.239 |
| CCATGTCC | -0.0942 |
| AAGCGTGC | 0.0348 |
| ATGTTTTC | 0.00791 |
| CCCATTAA | -0.145 |
| CTCCCACA | 0.0192 |
| AATTTGGC | -0.0616 |
| CTTTGACA | -0.0241 |
| CCCAATCC | 0.0484 |
| ACTTAACA | 0.0855 |
| ACATTTTA | -0.0427 |
| ACATGTGG | -0.2 |
| CTATGGCA | -0.14 |
| GCTGCTAC | 0.0206 |
| CAGATTGG | 0.00438 |

Set 2
Target: CCNB1, cyclin fold, Cln2 fusion (human)
Method: yeast growth competition, sequencing
Medium: yeast
Setting: weak parent motif
Relative to: not given
Direction: higher = stronger binding
Starting sequence: LLGL2 docking peptide (human); KSLKKSLRQSFRR
| Substitution | normalised enrichment score |
| --- | --- |
| K5A | 0.549 |
| K4A | 0.273 |
| L7A | 0.0681 |
| F11A | 0.405 |
| S6A | -0.165 |
| R12A | 0.74 |
| Q9A | 0.498 |

Set 3
Target: ABI1, truncated, D143A, DHFR fusion (Arabidopsis thaliana)
Method: DHFR PCA, deep sequencing
Medium: yeast
Setting: methotrexate growth selection, single substitutions
Together with: (+)-ABA 200 µM
Relative to: wild-type fitted maximum
Direction: higher = stronger binding
Starting sequence: PYL1, truncated, DHFR fusion (Arabidopsis thaliana); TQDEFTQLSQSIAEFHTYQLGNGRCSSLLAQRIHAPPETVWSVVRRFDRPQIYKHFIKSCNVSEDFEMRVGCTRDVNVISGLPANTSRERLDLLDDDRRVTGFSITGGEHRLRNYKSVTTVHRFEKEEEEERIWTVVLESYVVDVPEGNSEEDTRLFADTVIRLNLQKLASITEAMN
| Substitution | relative binding score [%] |
| --- | --- |
| I79Y | 99.3 |
| I12E | 49.9 |
| G81Y | 2.26 |
| A175Q | 99.9 |
| S80Y | 72.5 |
| R98W | 71.5 |
| I162C | 84.5 |
| V161W | 21.8 |
| R99V | 12.6 |
| V70P | 106 |
| D96G | 47.8 |
| H16W | -16.2 |
| N165T | 1.42 |
| D65Q | 98.1 |
| A30P | 71.5 |
| T154A | 84.2 |

Set 4
Target: Prothrombin, mature alpha-thrombin (F2, Homo sapiens, UniProt P00734)
Method: aptamer microarray, sandwich
Form: DNA with 2'F-ANA
Medium: in vitro
Concentration: 200 nM
Setting: whole 15-mer aptamer, many near background
Together with: Cy3 exosite-II aptamer, 400 nM
Direction: higher = stronger binding
Sequence: GGTTGGTGTGGTTGG
| Modification | mean fluorescence intensity [a.u.] |
| --- | --- |
| 2'F-ANA at 2 4 8 9 10 11 12 14 15 | 59.7 |
| 2'F-ANA at 4 6 9 11 14 15 | 68.3 |
| 2'F-ANA at 1 2 3 4 5 6 7 8 13 15 | 53 |
| 2'F-ANA at 4 6 8 9 12 13 15 | 305 |
| 2'F-ANA at 2 3 6 7 8 11 14 | 420 |
| 2'F-ANA at 2 4 5 6 8 10 11 12 13 15 | 56.9 |
| 2'F-ANA at 2 5 6 9 10 12 13 14 | 45.9 |
| 2'F-ANA at 1 2 6 7 10 11 | 51 |
| 2'F-ANA at 2 3 7 8 9 10 15 | 435 |
| 2'F-ANA at 2 4 6 7 8 10 12 13 14 15 | 64.3 |
| 2'F-ANA at 2 3 7 8 10 13 15 | 402 |
| 2'F-ANA at 2 8 11 12 13 15 | 519 |
| 2'F-ANA at 2 4 5 7 9 12 13 14 | 45.6 |
| 2'F-ANA at 5 6 7 10 11 15 | 47 |
| 2'F-ANA at 2 3 5 6 7 8 9 10 12 14 | 61.4 |
| 2'F-ANA at 1 3 5 6 7 10 12 13 | 50.9 |
| 2'F-ANA at 1 3 8 12 14 15 | 143 |
| 2'F-ANA at 3 5 6 9 10 11 12 13 14 | 53.9 |
| 2'F-ANA at 2 8 9 10 13 14 | 82.5 |
| 2'F-ANA at 6 7 8 12 15 | 810 |
| 2'F-ANA at 1 2 3 5 6 7 8 9 10 11 14 | 55.6 |
| 2'F-ANA at 3 4 5 8 10 12 | 61.7 |
| 2'F-ANA at 3 4 5 9 12 | 234 |
| 2'F-ANA at 1 2 3 4 5 9 10 11 12 | 50.2 |
| 2'F-ANA at 2 3 5 8 9 10 11 12 14 15 | 51.7 |

Set 5
Target: BIRC6 UBC core domain (UniProt Q9NR09)
Method: yeast two-hybrid
Medium: yeast
Setting: mostly zero background
Relative to: not given
Direction: higher = stronger interaction
B1: RNF182 RING domain (UniProt Q8N6D2); chain AESQASDELECKICYNRYNLKQRKPKVLECCHRVCAKCLYKIIDFGDSPQGVIVCPFCRFETCLPDDEV
B2: TRIM41 RING domain (UniProt Q8WV44); chain PVQTLQEEAVCAICLDYFTDPVSIGCGHNFCRVCVTQLWGGEDEEDRDELDREEEEEDGEEE
B3: NFX1 RING domain (UniProt Q12986); chain IEQLTTEKYECMVCCELVRVTAPVWSCQSCYHVFHLNCIKKWARSPASQADGQSGWRCPACQNVSAHVPNTY
B4: RNF103 RING domain (UniProt O00237); chain WPADMLHCTECVVCLENFENGCLLMGLPCGHVFHQNCIVMWLAGGRHCCPVCRWPSYKKKQPY
B5: RUFY1 RING domain (UniProt Q96T51); chain QALKGHAWLKDDEATHCRQCEKEFSISRRKHHCRNCGHIFCNTCSSNELALPSYPKPVRVCDSCHTLLLQRCSSTAS
B6: ZNRF4 RING domain (UniProt Q8WWF5); chain VRTFTWHNDLCAICLDEYEEGDQLKILPCSHTYHCKCIDPWFSQAPRRSCPVCKQSVAATEDSF
B7: HLTF RING domain (UniProt Q14527); chain LILSSGSDEECAICLDSLTVPVITHCAHVFCKPCICQVIQNEQPHAKCPLCRNDIHEDNLLE
B8: MARCHF1 RING domain (UniProt Q8TCQ1); chain TAPRSQSRLSVCPSTQDICRICHCEGDEESPLITPCRCTGTLRFVHQSCLHQWIKSSDTRCCELCKYDFIMETKLKPLRKWE
B9: RNF6 RING domain (UniProt Q9Y252); chain NSIDSELGKICSVCISDYVTGNKLRQLPCMHEFHIHCIDRWLSENCTCPICRQPVLGSNIAN
Target sequence (chain): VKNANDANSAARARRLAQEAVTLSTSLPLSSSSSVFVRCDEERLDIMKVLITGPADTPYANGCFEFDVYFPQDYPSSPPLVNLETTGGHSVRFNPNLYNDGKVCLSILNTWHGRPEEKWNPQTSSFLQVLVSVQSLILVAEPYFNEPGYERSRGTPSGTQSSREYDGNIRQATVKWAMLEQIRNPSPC
| Molecule | lacZ reporter activity |
| --- | --- |
| B1 (RNF182 RING domain) | 0 |
| FAEQPSVKLCCQLCCSVFKDPVITTCGHTFCRRCALKSEKCPVDNVKLTVVVNNI (TRAF7 RING domain (UniProt Q6Q0C0)) | 0 |
| LVKDFNPYITCYICKGYLIKPTTVTECLHTFCKTCIVQHFEDSNDCPRCGNQVHETNPLE (PCGF5 RING domain (UniProt Q86SE9)) | 0 |
| LEALSSDFLACKICLEQLRAPKTLPCLHTYCQDCLAQLADGGRVRCPECRETVPVPPEGV (TRIM56 RING domain (UniProt Q9BRZ2)) | 0 |
| EIKEYKARLTCPCCNTRKKDAVLTKCFHVFCFECVRGRYEARQRKCPKCNAAFGAHDFHR (RNF40 RING domain (UniProt O75150)) | 0 |
| B2 (TRIM41 RING domain) | 0 |
| B3 (NFX1 RING domain) | 0 |
| B4 (RNF103 RING domain) | 0 |
| ASPKIFQKTKCSICNSALELPSVHFLCGHSFHQHCFESYSESDADCPTCLPENRKVMDMI (VPS11 RING domain (UniProt Q9H270)) | 0 |
| B5 (RUFY1 RING domain) | 0 |
| DDVLTKDAGECVICLEELLQGDTIARLPCLCIYHKSCIDSWFEVNRSCPEHPAD (ZNRF1 RING domain (UniProt Q8ND25)) | 0 |
| B6 (ZNRF4 RING domain) | 0 |
| ASEEEFQFLRCQQCQAEAKCPKLLPCLHTLCSGCLEASGMQCPICQAPWPLGADTP (PML RING domain (UniProt P29590)) | 0 |
| B7 (HLTF RING domain) | 0 |
| B8 (MARCHF1 RING domain) | 0 |
| B9 (RNF6 RING domain) | 0 |

For quick reference, copied from above (set 1):
| Sequence | E-score |
| --- | --- |
| GTCTAGGA | -0.13 |
| TATGTGGA | -0.0274 |
| ACTTTCGA | -0.0765 |
| GGCATATA | 0.0972 |
| ATAACAGC | 0.00749 |
| TGAATGCA | 0.105 |
| GTATTCAC | 0.0673 |
